Published values of several laboratories.
Parts stem from different laboratories: compare values within a part only.

Series 1 — method: protein-binding microarray; molecule type: double-stranded DNA, one strand shown; matrix: in vitro; concentration: 2200 nM top; notes: 60-bp whole probe; with: salmon DNA 0.4 mg/ml; relative to: random background probes; reading: higher = stronger binding; quantity: fitted relative affinity; constant ends, left off below: GCCTAGCAC … GTCTTGATTCGCTTGACGCTGCTG
Target: Interferon regulatory factor 7, full length, phosphomimetic (IRF7, Homo sapiens, UniProt Q92985, residues 1-503, S471D/S472D/S475D/S476D/S477D/S483D/S484D/S487D)
Residues (chain): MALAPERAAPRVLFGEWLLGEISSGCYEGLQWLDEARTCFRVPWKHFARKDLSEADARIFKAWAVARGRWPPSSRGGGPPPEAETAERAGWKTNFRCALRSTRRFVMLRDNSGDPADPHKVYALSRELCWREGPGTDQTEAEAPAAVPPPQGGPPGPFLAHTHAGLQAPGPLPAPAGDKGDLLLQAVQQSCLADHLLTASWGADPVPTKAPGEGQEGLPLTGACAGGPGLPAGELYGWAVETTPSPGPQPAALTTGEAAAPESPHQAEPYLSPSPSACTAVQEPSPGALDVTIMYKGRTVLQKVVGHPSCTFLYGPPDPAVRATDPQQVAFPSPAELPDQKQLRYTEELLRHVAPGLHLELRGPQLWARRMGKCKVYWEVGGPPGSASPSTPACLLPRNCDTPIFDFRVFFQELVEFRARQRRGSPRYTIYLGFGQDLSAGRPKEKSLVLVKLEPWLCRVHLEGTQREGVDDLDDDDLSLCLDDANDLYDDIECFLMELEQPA
GACGGTTTCCTCATCCTGACGTGCTAG: 2.4 z-score
CTTGATTTTGGTCTTTCTGTGTGCTAG: 1.5 z-score
GACGATATCGGGGTTCGAGACGTGCTA: 0.0863 z-score
TTAGGTATCGGTTTCCGTTAGTGCTAG: 3.7 z-score
GACAGTTTCGGTTCCGGGACGTGCTAG: 13.7 z-score
ATGTATACACACTATAGTGAAGTGCTA: 0.489 z-score
TCATATATGAATATATAACTGTGCTAG: 0.506 z-score
TTAGGTTTCGGTTTGGGTTAGTGCTAG: 14.6 z-score
GACGATTCCATTTTCGAGACGTGCTAG: 4.43 z-score
TCAGCTCTCCGGGGTCTGACTGTGCTA: -0.206 z-score
TTAGGACAGGGTATCGGTTAGTGCTAG: -0.28 z-score
TCAGGTATGGCCTATTTAACTGTGCTA: -0.0753 z-score
GACGAACTGAGGATCGAGACGTGCTAG: -0.211 z-score
TTAGGTCTCGGACTGGGTAAGTGCTAG: -0.296 z-score
TTAGGTTTCCTTCACCTTTAGTGCTAG: 1.49 z-score
GACGGACTGGGTTACGGGACGTGCTAG: -0.804 z-score
TTAGGTCTCGGACAGGGTTAGTGCTAG: -0.403 z-score
TCAACTAGGGAATTTAGAACTGTGCTA: -1 z-score
TTCGGTTTCGGACTGGGTTAGTGCTAG: 5.97 z-score
GACGGTCTCCTTCTCTTGACGTGCTAG: 1.26 z-score
GAGGATCTCAGTCTCGAGACGTGCTAG: 0.121 z-score
ACTAATTTTCATTTTCCAAAGTGCTAG: 5.17 z-score
TTAGGTATCCTTTTCCATTAGTGCTAG: 1.54 z-score
TTAGGACTGGTCACTGGGTTAGTGCTA: -0.692 z-score
GCAAATATATCAGTGAATTTGTGCTAG: -0.104 z-score

Series 2 — method: protein binding microarray; molecule type: double-stranded DNA, one strand shown; matrix: in vitro; concentration: not given; relative to: not given; reading: higher = stronger binding; quantity: E-score
Target: Histone acetyltransferase KAT6A, winged helix 1, GST fusion (KAT6A, Homo sapiens, UniProt Q92794, residues 1-85)
Notes: 8-mer, flanks averaged, mean of 2 arrays, mostly near background
Target sequence (chain): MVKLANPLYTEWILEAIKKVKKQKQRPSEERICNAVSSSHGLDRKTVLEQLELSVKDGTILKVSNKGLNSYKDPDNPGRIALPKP
GGCCGTGA: 0.34
AGATATTG: -0.24
CAATAGTA: 0.0136
AACCTCCG: 0.0367
TACGACAA: -0.186
ACAAGAAA: -0.0221
GAATCGTC: 0.00995
ACAAGGTC: -0.094
AGAACGGC: 0.113
CGTTAATA: 0.103
CGCCAGTC: 0.207
CACTCTTC: -0.14
ATAACCAG: -0.186
CATGAAAA: -0.223
CAGGGGAA: -0.145
GATTCGCC: -0.0272
AGACGAAC: -0.0341
ACCGTGCG: 0.315
AATCGAGT: -0.0739
GTTGCATA: -0.068
TATCCACA: -0.274
CCCTAACA: -0.068
AAGAGCCT: -0.0923
AGGCCGTG: 0.286
ATCAGCTC: -0.162

Series 3 — method: universal PBM; molecule type: double-stranded DNA, one strand shown; matrix: in vitro; concentration: 600 nM; reading: higher = stronger binding; quantity: E-score
Target: Sal-like protein 4, full length isoform A (SALL4, Homo sapiens, UniProt Q9UJQ4, residues 1-1053)
UniProt Q9UJQ4, sequence (whole entry, looked up): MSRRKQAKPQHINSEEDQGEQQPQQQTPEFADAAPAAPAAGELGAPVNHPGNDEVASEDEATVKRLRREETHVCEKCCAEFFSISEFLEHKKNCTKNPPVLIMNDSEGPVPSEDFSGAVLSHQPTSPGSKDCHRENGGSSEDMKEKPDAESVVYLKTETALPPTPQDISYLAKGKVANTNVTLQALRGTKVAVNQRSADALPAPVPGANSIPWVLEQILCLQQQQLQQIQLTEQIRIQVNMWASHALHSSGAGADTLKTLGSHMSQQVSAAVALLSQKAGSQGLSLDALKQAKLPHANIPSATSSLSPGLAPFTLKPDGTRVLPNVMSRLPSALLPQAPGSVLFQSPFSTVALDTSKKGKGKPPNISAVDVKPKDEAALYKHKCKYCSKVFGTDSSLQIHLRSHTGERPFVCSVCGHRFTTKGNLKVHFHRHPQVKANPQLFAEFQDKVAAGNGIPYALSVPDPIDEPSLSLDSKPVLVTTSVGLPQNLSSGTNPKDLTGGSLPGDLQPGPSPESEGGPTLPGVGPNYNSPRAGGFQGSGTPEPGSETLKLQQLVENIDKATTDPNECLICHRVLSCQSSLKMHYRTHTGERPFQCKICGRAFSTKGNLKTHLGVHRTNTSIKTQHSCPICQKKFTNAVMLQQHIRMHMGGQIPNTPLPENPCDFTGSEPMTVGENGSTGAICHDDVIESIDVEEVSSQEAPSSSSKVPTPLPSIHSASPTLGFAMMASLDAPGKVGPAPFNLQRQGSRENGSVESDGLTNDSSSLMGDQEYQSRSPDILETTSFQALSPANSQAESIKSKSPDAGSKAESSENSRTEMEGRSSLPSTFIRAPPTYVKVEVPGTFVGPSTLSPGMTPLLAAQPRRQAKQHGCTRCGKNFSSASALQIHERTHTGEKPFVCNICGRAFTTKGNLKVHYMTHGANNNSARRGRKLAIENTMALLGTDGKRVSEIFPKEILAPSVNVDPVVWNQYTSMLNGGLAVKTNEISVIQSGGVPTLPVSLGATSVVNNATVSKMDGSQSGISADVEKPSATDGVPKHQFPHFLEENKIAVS
Notes: 8-mer, flanks averaged, mean of replicates
CCGCTAGA: -0.193
GACCATTA: 0.233
GATAGACC: -0.0285
TTGCCAAA: 0.118
TGCGTACA: 0.0898
AATTACTG: 0.199
AAGCAGCG: -0.128
ACTTTTAT: 0.281
GATGCTAC: 0.0928
ACTCTTGG: -0.0886
CCGGACGA: -0.219
AACTAATC: 0.17
AAAAGAGG: 0.0462
GTACGGTA: 0.0161
CCGTCCAG: -0.229
AGGCTCAT: -0.154
AGCCACGG: -0.339
CTGCTGAC: -0.16
CTGAGGAA: -0.00223
AGTAAGAT: 0.211
ACCAACAG: -0.231
CCCGGAGA: -0.275
ACATAAAG: 0.286
ACGTTACG: 0.0354
ATGCTCAG: 0.0429

Series 4 — method: RNA Bind-n-Seq; molecule type: RNA; matrix: in vitro; concentration: 365 nM; relative to: no-protein control; reading: higher = stronger binding; quantity: RBNS enrichment (R)
Target: RNA binding protein fox-1 homolog 2, RRM domain, GST-SBP tag (RBFOX2, Homo sapiens, UniProt O43251-10, residues 100-194)
Notes: natural RNA segment, single round, ends assumed
Construct (chain): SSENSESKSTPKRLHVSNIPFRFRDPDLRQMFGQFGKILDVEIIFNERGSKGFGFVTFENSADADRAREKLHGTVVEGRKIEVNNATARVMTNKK
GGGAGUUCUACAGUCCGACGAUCACUCCCUAGGAAAGUAACGGGCACCAGGCUUCGUGACUUUCAUUCUCAUUUAUAAGUUAGACAUUCAUUCACUAGAACAUUUAUGCUCAGAAUCUUCCUUAAGAGGGUGUUGGAAUUCUCGGGUGCCAA: 0.408
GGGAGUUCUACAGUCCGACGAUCUUCACAUUACAAUAAUAUGUGUAGUAGUUGAAUUGUGUUAUCAAAGCAUGUCCAACUUCUGUCCAGAUGACAUUAAAACCAAAGCCUAAUUGUUAAGCCUCUUAUUCUAAUGGAAUUCUCGGGUGCCAA: 4.29
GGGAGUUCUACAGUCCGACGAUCGAUUAAAAACUUUCUCUUCCACGGACUUUAAGCCCGGUAGGAAAGAGAGAGGAGGAGGGGGAAAGAGCAAACCAUCUUUCUUCCAGGCCCUUGACUGCUCCUUUGGGCUGUGGAAUUCUCGGGUGCCAA: 0.312
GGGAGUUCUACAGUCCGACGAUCAAAUCUCUUAAACUCUCUUCUUCCAUUAGAAUGCUACAAGUAACUCAGUGAAGGCCCAUGAAGGAAAUUGGGACUAGUUUAUAGGAGAACGUAUCAAUACAGUUUAUAAAUGGAAUUCUCGGGUGCCAA: 0.965
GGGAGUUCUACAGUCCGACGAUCCUGCGCUUUGAUGGGGAGGAGGGCAGGUCCCUGUGCAGCCAGGGUUCUUGCUCCUUCCAUGGCAGGAUGAGAAGGAAGGCCUAAGAGGCUGGCCAGGGGCCUGGUGUAGAUGGAAUUCUCGGGUGCCAA: 0.835
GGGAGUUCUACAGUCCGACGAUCAUUGGGCACACACAACUCCUGGUCAUGUCCCAGUUCAGCACCGAUCGCUAAGGCCGAUCCUGUAGAAUGCGGCUUUCAAGAGGUCCUAACUGAUCCUUUCUUCCACUUUGUGGAAUUCUCGGGUGCCAA: 0.27
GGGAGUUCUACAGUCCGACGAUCCUGAAUUCAGUGAUAUCCCUAUACACUGCCAUUUAGUGGAUAGGUUAUUGUACUUCCAUUCAUACUCUGGGCACUUGUGUUGUAUUGUUCUGUUACAUACUUUUUUUAACUGGAAUUCUCGGGUGCCAA: 0.323
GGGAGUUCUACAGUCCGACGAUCAAUGCUAUUGAAAAGGUUAACAGAUACAGCUCGGAGUUGUGAGCACUCUACUGCAAGACUUAAAUAGUUCAGUAUAAAUUGUCGUUUUUUUCUUGUGCUGACUAACUAUAUGGAAUUCUCGGGUGCCAA: 1.03
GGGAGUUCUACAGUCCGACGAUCAGCUGUAGGACCUGCAUGGGAAAUGGUCUGUGUGUUUCAGGUUAACAAAUACUGAAAAUCCCAAGGAACCUGGGAGAAUCUGAAAAUGAACUCCAGUCUUCAGCUCGAAGUGGAAUUCUCGGGUGCCAA: 7.42
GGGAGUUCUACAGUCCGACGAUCAUCUUGGUUUGUCAGUUUAUCUUAAGCAUGUCAAUUCAUAAAAACAAGUCAUUUUUGUAUUUUUCAUCUUUAAGAAUGCUUAAAAAAGCUAAUCCCUAAAAUAGUUAGAUUGGAAUUCUCGGGUGCCAA: 2.01
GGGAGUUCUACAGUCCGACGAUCUAACCUUGGCCUACUCUAUUCUUUCCCCCCAUGAACUUAUCAAAGGGAGAACUGGUUGUGUAUUUAAGAGAAAUGAGAGUGCAUUGCAAAGUAGUUUCCCAAGGCAUUUCUGGAAUUCUCGGGUGCCAA: 0.429
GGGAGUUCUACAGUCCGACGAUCAGCAAGGAGCAGGUAAGUGAGCAGUUAUGGACAGCACUUUCCAUGUGGUGCUUCCGACCCUGGCUGUCAGAGUGAAAUGUAAAGUCAGGGCUCUGUACAGUUUUGCCAUUUGGAAUUCUCGGGUGCCAA: 3.23

Series 5 — method: RNA Bind-n-Seq; molecule type: RNA; matrix: in vitro; concentration: 20 nM; notes: 6-mer, flanks averaged, single round; with: 150 mM LiCl; relative to: input library; reading: higher = stronger binding; quantity: 6-mer enrichment (R)
Target: TAR DNA-binding protein 43, full length, His tag (TARDBP, Homo sapiens, UniProt Q13148, residues 1-414)
CACUGG: 0.894
UAGGUC: 0.89
GCCGCU: 0.944
CCAGAU: 0.845
ACUGAA: 0.84
CGUUGC: 0.935
AAGGAG: 0.984
CACGAG: 0.861
ACCGAU: 0.821
CACCCC: 1.16
ACAGAU: 0.808
CGGUUA: 0.919
AGACUG: 0.921
CAAACC: 0.836
AAAGCA: 0.809
UCACUG: 0.859
GCUCAU: 0.879
CACUCC: 0.939
GUGUAU: 1.56
AACCUA: 0.829
GCGAAC: 0.864
AACAUG: 0.86
CACAAU: 0.907
